# Published values collected from several papers.
# Lines come from different studies, so protocols differ. Several values in a cell are separate wells, animals, samples, runs or records. ± marks the error that the study gave.
# folP: Dihydropteroate synthase (folP, Bacteria, UniProt P0AC13)
# Sequence of UniProt P0AC13 (whole entry, looked up): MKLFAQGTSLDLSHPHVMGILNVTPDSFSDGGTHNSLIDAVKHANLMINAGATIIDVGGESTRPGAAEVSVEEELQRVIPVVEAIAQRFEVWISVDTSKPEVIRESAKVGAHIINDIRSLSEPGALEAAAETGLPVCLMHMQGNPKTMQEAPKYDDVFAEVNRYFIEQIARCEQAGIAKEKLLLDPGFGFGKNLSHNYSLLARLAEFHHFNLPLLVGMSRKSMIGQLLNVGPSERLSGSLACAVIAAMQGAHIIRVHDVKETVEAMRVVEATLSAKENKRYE
# CP: CP (Tobacco mosaic virus, UniProt P69687)
# Sequence of UniProt P69687 (whole entry, looked up): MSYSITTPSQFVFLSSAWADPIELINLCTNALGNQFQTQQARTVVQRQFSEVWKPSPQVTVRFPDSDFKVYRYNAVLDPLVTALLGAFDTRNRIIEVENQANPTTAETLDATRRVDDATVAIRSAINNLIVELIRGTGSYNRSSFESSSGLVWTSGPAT
# VSIR: V-type immunoglobulin domain-containing suppressor of T-cell activation (VSIR, Homo sapiens, UniProt Q9H7M9)
# Sequence of UniProt Q9SZU7 (whole entry, unmodified, looked up): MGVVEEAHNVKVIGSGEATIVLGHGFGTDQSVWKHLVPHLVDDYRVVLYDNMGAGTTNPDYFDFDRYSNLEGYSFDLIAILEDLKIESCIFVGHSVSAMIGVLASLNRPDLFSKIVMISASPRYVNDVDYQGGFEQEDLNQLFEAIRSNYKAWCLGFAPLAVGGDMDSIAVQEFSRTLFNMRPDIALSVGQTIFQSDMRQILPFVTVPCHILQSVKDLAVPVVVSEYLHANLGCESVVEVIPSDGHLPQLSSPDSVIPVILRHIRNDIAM
# Sequence of UniProt P39748 (whole entry, unmodified, looked up): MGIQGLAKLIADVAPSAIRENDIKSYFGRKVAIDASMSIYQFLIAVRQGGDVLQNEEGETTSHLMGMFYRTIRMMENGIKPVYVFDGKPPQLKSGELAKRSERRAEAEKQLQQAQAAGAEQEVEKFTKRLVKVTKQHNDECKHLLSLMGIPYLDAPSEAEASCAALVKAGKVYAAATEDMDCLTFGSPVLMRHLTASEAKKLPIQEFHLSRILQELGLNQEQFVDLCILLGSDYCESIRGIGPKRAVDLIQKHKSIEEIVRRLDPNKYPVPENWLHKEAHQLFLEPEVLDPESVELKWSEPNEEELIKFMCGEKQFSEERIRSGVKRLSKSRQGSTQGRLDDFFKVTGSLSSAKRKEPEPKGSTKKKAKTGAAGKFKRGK
# Sequence of UniProt Q9UK32 (whole entry, looked up): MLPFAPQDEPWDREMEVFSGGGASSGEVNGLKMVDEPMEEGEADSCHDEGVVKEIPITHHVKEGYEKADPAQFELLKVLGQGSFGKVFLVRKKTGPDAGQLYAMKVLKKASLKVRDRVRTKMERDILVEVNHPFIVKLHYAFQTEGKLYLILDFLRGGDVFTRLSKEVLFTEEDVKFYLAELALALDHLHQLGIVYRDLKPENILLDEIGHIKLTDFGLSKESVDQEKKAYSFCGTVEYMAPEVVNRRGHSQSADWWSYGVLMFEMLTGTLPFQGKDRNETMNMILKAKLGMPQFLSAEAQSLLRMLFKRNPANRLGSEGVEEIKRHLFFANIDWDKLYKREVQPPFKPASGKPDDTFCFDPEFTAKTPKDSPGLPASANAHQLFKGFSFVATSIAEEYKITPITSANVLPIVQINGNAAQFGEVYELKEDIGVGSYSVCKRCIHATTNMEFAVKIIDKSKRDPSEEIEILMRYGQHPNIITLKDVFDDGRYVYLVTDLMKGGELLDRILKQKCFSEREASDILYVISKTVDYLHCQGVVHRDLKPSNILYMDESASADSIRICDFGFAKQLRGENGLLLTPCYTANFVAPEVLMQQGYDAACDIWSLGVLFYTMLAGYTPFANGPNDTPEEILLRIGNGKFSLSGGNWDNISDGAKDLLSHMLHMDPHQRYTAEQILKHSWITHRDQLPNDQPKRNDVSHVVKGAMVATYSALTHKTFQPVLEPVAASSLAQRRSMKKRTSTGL
# Sequence of UniProt Q13526 (whole entry, looked up): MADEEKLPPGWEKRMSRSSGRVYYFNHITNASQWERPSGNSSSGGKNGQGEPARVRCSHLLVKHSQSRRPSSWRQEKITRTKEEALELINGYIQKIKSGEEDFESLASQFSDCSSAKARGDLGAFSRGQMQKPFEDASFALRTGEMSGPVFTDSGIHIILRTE
# Sequence of UniProt Q16881 (whole entry, unmodified, looked up): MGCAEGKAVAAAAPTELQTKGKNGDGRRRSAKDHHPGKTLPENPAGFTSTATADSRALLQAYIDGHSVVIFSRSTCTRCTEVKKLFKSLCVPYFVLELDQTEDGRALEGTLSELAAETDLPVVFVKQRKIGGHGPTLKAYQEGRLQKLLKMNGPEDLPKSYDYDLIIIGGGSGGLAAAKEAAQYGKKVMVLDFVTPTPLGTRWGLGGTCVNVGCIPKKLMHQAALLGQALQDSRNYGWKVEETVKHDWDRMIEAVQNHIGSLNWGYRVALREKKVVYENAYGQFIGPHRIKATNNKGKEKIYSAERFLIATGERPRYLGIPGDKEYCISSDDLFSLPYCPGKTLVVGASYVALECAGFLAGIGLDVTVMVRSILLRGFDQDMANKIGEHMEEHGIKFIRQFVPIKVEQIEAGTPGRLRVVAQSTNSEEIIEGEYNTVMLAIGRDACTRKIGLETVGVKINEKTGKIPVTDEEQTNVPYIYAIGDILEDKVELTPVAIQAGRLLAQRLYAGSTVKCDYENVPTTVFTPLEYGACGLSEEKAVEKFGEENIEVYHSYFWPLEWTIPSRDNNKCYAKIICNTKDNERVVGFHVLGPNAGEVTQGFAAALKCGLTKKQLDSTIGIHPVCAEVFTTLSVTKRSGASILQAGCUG
# Sequence of UniProt P35218 (whole entry, looked up): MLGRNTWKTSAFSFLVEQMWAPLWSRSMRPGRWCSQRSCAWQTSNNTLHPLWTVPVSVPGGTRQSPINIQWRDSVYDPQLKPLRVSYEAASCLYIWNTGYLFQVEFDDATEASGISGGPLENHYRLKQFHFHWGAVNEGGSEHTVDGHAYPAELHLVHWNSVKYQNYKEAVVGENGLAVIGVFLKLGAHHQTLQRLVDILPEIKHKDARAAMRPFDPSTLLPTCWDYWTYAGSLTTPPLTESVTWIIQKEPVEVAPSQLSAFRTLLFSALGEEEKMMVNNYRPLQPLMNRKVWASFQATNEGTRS
# Sequence of UniProt P51686 (whole entry, looked up): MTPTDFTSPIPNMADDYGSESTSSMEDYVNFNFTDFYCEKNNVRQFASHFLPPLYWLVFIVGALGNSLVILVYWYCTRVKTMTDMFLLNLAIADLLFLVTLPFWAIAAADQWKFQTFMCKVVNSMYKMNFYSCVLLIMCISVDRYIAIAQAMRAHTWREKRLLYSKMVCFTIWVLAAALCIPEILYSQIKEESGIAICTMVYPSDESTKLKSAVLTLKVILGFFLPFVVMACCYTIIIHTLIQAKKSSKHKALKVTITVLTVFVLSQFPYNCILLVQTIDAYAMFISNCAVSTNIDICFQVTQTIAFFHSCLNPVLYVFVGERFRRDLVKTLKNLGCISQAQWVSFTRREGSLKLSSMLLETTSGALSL
# Sequence of UniProt Q7Z2W7 (whole entry, looked up): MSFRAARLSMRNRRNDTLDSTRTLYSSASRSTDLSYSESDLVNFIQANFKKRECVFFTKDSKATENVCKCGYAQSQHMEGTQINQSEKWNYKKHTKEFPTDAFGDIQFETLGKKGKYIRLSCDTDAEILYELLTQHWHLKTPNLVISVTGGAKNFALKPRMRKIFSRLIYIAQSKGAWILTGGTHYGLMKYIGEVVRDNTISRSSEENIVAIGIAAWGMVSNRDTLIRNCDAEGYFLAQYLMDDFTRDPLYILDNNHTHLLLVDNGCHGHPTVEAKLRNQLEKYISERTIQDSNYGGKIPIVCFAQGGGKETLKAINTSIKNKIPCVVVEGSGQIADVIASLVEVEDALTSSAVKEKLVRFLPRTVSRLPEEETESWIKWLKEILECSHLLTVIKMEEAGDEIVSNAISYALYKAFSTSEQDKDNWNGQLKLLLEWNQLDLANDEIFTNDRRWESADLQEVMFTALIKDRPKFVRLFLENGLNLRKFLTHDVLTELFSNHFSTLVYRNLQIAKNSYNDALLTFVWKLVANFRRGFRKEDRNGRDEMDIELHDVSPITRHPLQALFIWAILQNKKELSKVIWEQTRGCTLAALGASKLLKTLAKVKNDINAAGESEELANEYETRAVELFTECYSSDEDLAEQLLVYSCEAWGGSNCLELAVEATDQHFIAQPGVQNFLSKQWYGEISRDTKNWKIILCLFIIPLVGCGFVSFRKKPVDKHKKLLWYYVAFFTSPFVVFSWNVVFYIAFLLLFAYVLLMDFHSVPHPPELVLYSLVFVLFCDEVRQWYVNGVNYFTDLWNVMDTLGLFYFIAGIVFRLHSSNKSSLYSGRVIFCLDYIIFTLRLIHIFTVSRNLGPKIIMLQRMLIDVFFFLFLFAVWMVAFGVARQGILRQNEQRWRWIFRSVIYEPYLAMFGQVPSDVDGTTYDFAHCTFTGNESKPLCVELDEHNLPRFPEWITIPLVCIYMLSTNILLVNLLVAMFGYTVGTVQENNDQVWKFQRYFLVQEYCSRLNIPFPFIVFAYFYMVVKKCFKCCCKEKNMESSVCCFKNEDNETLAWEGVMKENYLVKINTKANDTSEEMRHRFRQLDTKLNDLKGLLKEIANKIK
# Sequence of UniProt P30048 (whole entry, looked up): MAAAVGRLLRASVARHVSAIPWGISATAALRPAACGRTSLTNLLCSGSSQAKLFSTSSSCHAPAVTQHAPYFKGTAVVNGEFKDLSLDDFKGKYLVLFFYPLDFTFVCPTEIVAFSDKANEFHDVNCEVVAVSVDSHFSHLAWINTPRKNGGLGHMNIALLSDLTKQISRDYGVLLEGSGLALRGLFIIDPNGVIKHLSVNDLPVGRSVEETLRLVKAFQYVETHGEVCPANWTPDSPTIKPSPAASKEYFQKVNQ
# Sequence of UniProt P35222 (141-305, looked up): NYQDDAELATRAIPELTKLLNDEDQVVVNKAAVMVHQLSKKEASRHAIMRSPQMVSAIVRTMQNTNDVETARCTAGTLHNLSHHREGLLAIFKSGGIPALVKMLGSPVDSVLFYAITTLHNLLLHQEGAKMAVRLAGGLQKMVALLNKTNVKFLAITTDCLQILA
SMILES,target,assay,system,conditions,Kd
CCCCCCCC[C@@H]1NC(=O)[C@@H](CCCN)NC(=O)[C@@H](NC(=O)[C@@H](NC(=O)[C@@H](CCC(=O)O)NC(=O)[C@H](CC(C)C)NC(=O)[C@@H]2CSC([C@@H](N)[C@@H](C)CC)=N2)[C@@H](C)CC)CCCCNC(=O)[C@H](CC(N)=O)NC(=O)[C@@H](CC(=O)O)NC(=O)[C@H](Cc2c[nH]cn2)NC(=O)[C@@H](Cc2ccccc2)NC1=O,undecaprenyl pyrophosphate,"binding, isothermal titration calorimetry",phosphatidylcholine lipid vesicles,"pH 7.5, 25 °C, 0.3 mM zinc sulfate",0.021 ± 0.0114 µM
C[C@H](CCC(=O)NCCS(=O)(=O)O)[C@H]1CC[C@H]2[C@@H]3CC[C@@H]4C[C@H](OS(=O)(=O)O)CC[C@]4(C)[C@H]3CC[C@]12C,"Electrogenic aspartate/glutamate antiporter SLC25A13, mitochondrial (SLC25A13, Homo sapiens, UniProt Q9UJS0)","binding, ITC",,pH 6.5,101 µM
CN(C)c1ccc2c(-c3cc(C(=O)NCc4cn(CCOCCOCCOc5cc(C(=O)c6cc(Cl)ccc6NS(=O)(=O)c6ccc(C(C)(C)C)cc6)cc[n+]5[O-])nn4)ccc3C(=O)[O-])c3ccc(=[N+](C)C)cc-3oc2c1,"C-C chemokine receptor type 9 (CCR9, Homo sapiens, UniProt P51686)","binder, NanoBRET",HEK293T,,0.0555 ± 0.0041 µM
Cn1ncc2cc(-c3cncc(Cl)c3N3CCC4(CCNC4=O)CC3)ccc21,MED20 human,SILAC competition,LS174T-L5 lysate,,0.009 µM
CNc1cc(N)c(C(N)=O)cn1,"Nicotinamide N-methyltransferase, SAM-bound (Rattus norvegicus, UniProt A0ABK0M0V0)","substrate, SPR",,"37 °C, together with: SAM",2 µM
CC(=O)N(O)CCCCCNC(=O)CCC(=O)N(O)CCCCCNC(=O)CCC(=O)N(O)CCCCCNc1ccc([N+](=O)[O-])c2nonc12,"Iron(3+)-hydroxamate-binding protein YxeB (yxeB, Bacillus subtilis, UniProt P54941)","binding, Trp fluorescence quenching",,"pH 7.4, together with: yxeB 100 nM",0.048 ± 0.024 µM
O=c1cc(-c2ccccc2)oc2c(OCCCCN3CCCC3)c(OCc3ccccc3)cc(O)c12,"Thioredoxin reductase 1, cytoplasmic (TXNRD1, Homo sapiens, UniProt Q16881, R371A)","binding, microscale thermophoresis",,,218 µM
CC(CC(=O)O)c1nn(C)c2nc(N)[nH]c(=O)c2c1=O (stereo not drawn),folP,"binding, SPR",,,0.0163 µM
CCc1nc2cc3ccccc3cc2cc1C(=O)N1CCC[C@H]1C(=O)N[C@@H](C/C=C/C[C@H](NC(=O)[C@@H]1CCCN1C(=O)c1cc2cc3ccccc3cc2nc1CC)C(=O)N[C@@H](CCCCN)C(=O)NCCCN)C(=O)N[C@@H](CCCCN)C(=O)NCCCN,(CAG)10 RNA,SPR,,,0.045 µM
Cn1c2ccc(NC(=O)c3ccccc3)cc2c(=O)n2nc(C(=O)O)cc12,"Tumor necrosis factor receptor superfamily member 16 (Homo sapiens, UniProt P08138)","binding, SPR",,,0.175 µM
O=c1c2ccccc2n(CC2CC2)c(=O)n1O,"Flap endonuclease 1 (Homo sapiens, UniProt P39748)",ITC,,"pH 7.5, 25 °C, together with: 8 mM Mg2+",0.194 µM
CCCCSC(SCCCC)c1ccc(OCCNS(=O)(=O)c2ccc(F)cc2)c(OC)c1,CP,"binding, MST",,,9.7 µM
Cc1sc2c(c1C)C(c1ccc(Cl)cc1)=N[C@@H](CC(=O)NCCCCCCCNC(=O)c1ccc3c(c1)C(=O)OC31c3ccc(O)cc3Oc3cc(O)ccc31)c1nnc(C)n1-2,"uncharacterized protein (Spodoptera frugiperda, UniProt A0A9R0EEM2)",surface plasmon resonance,,binary complex,0.12 µM
CC[C@H](C)[C@H](NC(=O)[C@@H](NC(=O)[C@H](CO)NC(=O)[C@@H](NC(=O)[C@@H]1CCCN1C(=O)[C@H](CC(C)C)NC(=O)[C@H](CCCNC(=N)N)NC(=O)[C@H](CO)NC(=O)[C@H](CC(N)=O)NC(=O)[C@H](C)N)[C@@H](C)O)[C@@H](C)CC)C(=O)O,"Na(+)/H(+) exchange regulatory cofactor NHE-RF1 (NHERF1, Homo sapiens, UniProt O14745)","binding, FP",,,> 1000 µM
Cc1n[nH]c2nc(N)[nH]c(=O)c2c1=O,folP,"binding, SPR",,,0.142 µM
C=C1C(=O)OC2C1CCC(C)(O)C13C=CC(C)(C21)C1(C3)C(=O)OC2C3C(C)C(=O)CC3C(=C)CC(OC(C)=O)C21 (stereo not drawn),"NAD-dependent protein deacetylase sirtuin-1 (SIRT1, Homo sapiens, UniProt Q96EB6)","binding, ITC",,,6.17 µM
Cn1nc(CCCC(=O)O)c(=O)c2c(=O)[nH]c(N)nc21,folP,"binding, SPR",,,0.0405 µM
CC(CCc1ccccc1)NC(=O)C(=O)NCc1n[nH]c(=O)c2ccccc12 (stereo not drawn),VSIR,"binding, MST",,,2.13 µM
CCc1nc2cc3ccccc3cc2cc1C(=O)N[C@@H](CCCCN)C(=O)N[C@@H](C/C=C/C[C@H](NC(=O)[C@H](CCCCN)NC(=O)c1cc2cc3ccccc3cc2nc1CC)C(=O)N1CCC[C@H]1C(=O)NCCCN)C(=O)N1CCC[C@H]1C(=O)NCCCN,(CAG)10 RNA,SPR,,,0.228 µM
C=CC(=O)N1C[C@H](C)N(c2nc(OC[C@@]34CCCN3C[C@H](F)C4)nc3c(F)c(-c4ccc(F)c5sc(N)c(C#N)c45)c(C(F)(F)F)cc23)C[C@H]1C,"GTPase KRas, GDP-bound (KRAS, Homo sapiens, UniProt P01116)",SPR,,,0.0014 µM
COC(=O)CCCNC(=O)c1cc(S(N)(=O)=O)c(Cl)cc1NC1CCCCC1,"Carbonic anhydrase 5A, mitochondrial (CA5A, Homo sapiens, UniProt P35218)",,,pH 7,100 µM
CCn1cnc2c(Oc3ccc(/C=C/C(=O)c4ccc(NS(=O)(=O)c5ccccc5C)cc4)cc3)ncnc21,CP,"binding, MST",,,13.7 µM
Cc1c[nH]c2nccc(-c3ccc(C(=O)N[C@@H]4c5c(F)cc(C(F)F)cc5C[C@@H]4O)cn3)c12,"Ribosomal protein S6 kinase alpha-6, N-terminal kinase domain (RPS6KA6, Homo sapiens, UniProt Q9UK32)","binding, competition with immobilised ligand",,,0.245 µM
O=C(O)CCC(=O)C(=O)O,"Uncharacterized protein (Pelagibacter ubique, UniProt Q4FKX4)",isothermal titration calorimetry,Candidatus Pelagibacter ubique,one-set-of-sites model,0.0077 ± 0.0014 µM
O=C(NC1CCC2(CCCC2)CC1)c1ccc(-c2ccccc2)cc1,"Transient receptor potential cation channel subfamily M member 8 (TRPM8, Homo sapiens, UniProt Q7Z2W7)",19F NMR titration,LPPG micelles,37 °C,36 ± 11 mol %
NCCCC[C@H](NC(=O)[C@H](C/C=C/C[C@H](NC(=O)[C@@H]1CCCN1)C(=O)N[C@@H](CCCCN)C(=O)NCCCN)NC(=O)[C@@H]1CCCN1)C(=O)NCCCN,(CAG)10 RNA,SPR,,,0.352 µM
Cn1nc(COC(=O)c2ccccc2)c(=O)c2c(=O)[nH]c(N)nc21,folP,"binding, SPR",,,0.0022 µM
C/C=C(\C=O)[C@@H]1C[C@H]2c3[nH]c4ccccc4c3CCN2C=C1C(=O)OC,"Thioredoxin-dependent peroxide reductase, mitochondrial (PRDX3, Homo sapiens, UniProt P30048)","binding, SPR",,,0.608 µM
Cn1nc(CO)c(=O)c2c(=O)[nH]c(N)nc21,folP,"binding, SPR",,,0.0189 µM
Cc1cccc2c1N(C(=O)n1ccnn1)CC2,"KAI2 (Arabidopsis thaliana, UniProt Q9SZU7, F134A)","binding, isothermal titration calorimetry",,F134A mutant,13.9 µM and 8.33 µM and 11.2 µM and 10.2 µM
CC1=CC(/C=C/c2ccc3c(ccn3C)c2)=[N+]2C1=Cc1cccn1[B-]2(F)F,"Albumin (ALB, Homo sapiens, UniProt P02768)","binding, fluorescence titration",PBS,"30 min, pH 7.08, together with: BODIPY dye",5.8 ± 0.8 µM
Cn1cncc1C1=CN(c2ncnc3[nH]cnc23)CC[S+]1[O-] (stereo not drawn),"cAMP-dependent protein kinase catalytic subunit alpha (PRKACA, Homo sapiens, UniProt P17612)",binding,,,> 200 µM
CC(C)[C@H](NC(=O)[C@@H]1CCCN1C(=O)[C@@H](NC(=O)[C@H](CCCNC(=N)N)NC(=O)[C@@H]1CCCN1C(=O)[C@@H](NC(=O)OCC1c2ccccc2-c2ccccc21)C(C)C)[C@@H](C)OP(=O)(O)O)C(=O)NCC(=O)NCC(=O)NCC(=O)N[C@@H](CCCCN)C(N)=O,"Peptidyl-prolyl cis-trans isomerase NIMA-interacting 1, WW domain (PIN1, Homo sapiens, UniProt Q13526)","binding, competitive plate",,together with: 200 pM PIN1-HRP conjugate,66 ± 10 µM
COc1ccc(C(=O)NCCNC(=O)c2cc(-c3ccccc3)nc3ccccc23)cc1OC,VSIR,"binding, MST",,,0.47 µM
CN1CCN(c2ccc3[nH]c(-c4ccc5[nH]c(-c6ccc(OCCCCNC(=O)c7cccc8c7C(=O)OC87c8ccc(N(C)C)cc8C(C)(C)c8cc(N(C)C)ccc87)cc6)nc5c4)nc3c2)CC1,hairpin DNA,"binding, fluorescence titration",PBS,"1 h, room temperature",1.3 ± 0.1 µM
Cn1nc(CCC#N)c(=O)c2c(=O)[nH]c(N)nc21,folP,"binding, SPR",,,0.0334 µM
O=C(NS(=O)(=O)c1cccs1)c1cc2ccccc2n1Cc1ccc(Br)c2ccccc12,"Solute carrier family 22 member 11 (SLC22A11, Homo sapiens, UniProt Q9NSA0)","binding, SPR",,,0.71 µM
Cn1nc(C(=O)O)c(=O)c2c(=O)[nH]c(N)nc21,folP,"binding, SPR",,,0.00766 µM
CC1CCCN(CCCNC(=O)C2=Cc3sc4c(c3CS2)CCCC4)C1 (stereo not drawn),"Catenin beta-1, residues 141-305 (CTNNB1, Homo sapiens, UniProt P35222)","binding, isothermal titration calorimetry",,25 °C,1.05 µM

# Some of these lines once more:
SMILES,target,assay,system,conditions,Kd
Cn1ncc2cc(-c3cncc(Cl)c3N3CCC4(CCNC4=O)CC3)ccc21,MED20 human,SILAC competition,LS174T-L5 lysate,,0.009 µM
CNc1cc(N)c(C(N)=O)cn1,"Nicotinamide N-methyltransferase, SAM-bound (Rattus norvegicus, UniProt A0ABK0M0V0)","substrate, SPR",,"37 °C, together with: SAM",2 µM
CC(=O)N(O)CCCCCNC(=O)CCC(=O)N(O)CCCCCNC(=O)CCC(=O)N(O)CCCCCNc1ccc([N+](=O)[O-])c2nonc12,"Iron(3+)-hydroxamate-binding protein YxeB (yxeB, Bacillus subtilis, UniProt P54941)","binding, Trp fluorescence quenching",,"pH 7.4, together with: yxeB 100 nM",0.048 ± 0.024 µM
O=c1cc(-c2ccccc2)oc2c(OCCCCN3CCCC3)c(OCc3ccccc3)cc(O)c12,"Thioredoxin reductase 1, cytoplasmic (TXNRD1, Homo sapiens, UniProt Q16881, R371A)","binding, microscale thermophoresis",,,218 µM
CC(CC(=O)O)c1nn(C)c2nc(N)[nH]c(=O)c2c1=O (stereo not drawn),folP,"binding, SPR",,,0.0163 µM
CCc1nc2cc3ccccc3cc2cc1C(=O)N1CCC[C@H]1C(=O)N[C@@H](C/C=C/C[C@H](NC(=O)[C@@H]1CCCN1C(=O)c1cc2cc3ccccc3cc2nc1CC)C(=O)N[C@@H](CCCCN)C(=O)NCCCN)C(=O)N[C@@H](CCCCN)C(=O)NCCCN,(CAG)10 RNA,SPR,,,0.045 µM
